Measurements collected from several papers.
Each line is one published result; not all experiments were run side by side. Several values in a cell are separate wells, animals, samples, runs or records. ± marks the error that the study gave.

Under “plasma irinotecan level”, CCOc1ccc(NC(=S)N(CCO)Cc2cc3cc(C)cc(C)c3[nH]c2=O)cc1 is recorded as “no effect” (item: irinotecan, SN-38, SN-38-G; BALB/cJ mouse, plasma; oral, 20 µg/day, with: irinotecan 50 mg/kg ip).
Under plasma concentration, CC[C@H](C)[C@H](N)C(=O)N[C@H](C(=O)N[C@@H](CCCNC(=N)N)C(=O)N[C@@H](CCCNC(=N)N)C(=O)N[C@@H](C)C(=O)N[C@@H](CC(=O)O)C(=O)N[C@@H](CCCNC(=N)N)C(=O)N[C@@H](C)C(=O)N[C@@H](C)C(=O)N[C@H](C(=O)N1CCC[C@H]1C(=O)NCC(=O)NCC(=O)NCC(=O)NCC(=O)NCC(=O)N[C@@H](CC(N)=O)C(=O)N[C@@H](CCC(N)=O)C(=O)N[C@@H](Cc1c[nH]c2ccccc12)C(=O)N[C@@H](Cc1ccccc1)C(=O)N[C@H](C(=O)O)[C@@H](C)CC)C(C)C)C(C)C is recorded as “not detected” (BALB/c mouse; intravenous, 20 mg/kg, 24 h).
With CN(C)C(CNC(=O)Nc1cc(C(F)(F)F)ccc1N1CCOCC1)c1ccncc1 (stereo not drawn) the plasma concentration was 176000 ng/mL (mouse, C57BL/6J, plasma; intraperitoneal, 240 mg/kg, 1 h).
Under “plasma concentration ratio”, CCCCCCCC(=O)NCCCC[C@H](NC(=O)[C@H](Cc1ccccc1)NC(=O)[C@@H](CCCNC(=N)N)NC(=O)[C@@H](N)Cc1ccc(O)cc1)C(N)=O is recorded as 9.3 fold (mouse, CD-1, male, plasma; intravenous, 3 mg/kg, 20 min, with: curcumin nanoemulsion 10 mg/kg; reference: with over without curcumin).
O=C1C(P(=O)(O)O)CCCN1O (stereo not drawn) — result for plasma concentration: “not detected” (mouse, plasma; subcutaneous, 400 mg/kg, 2 h, detection limit 1 µM).
CC1=C[C@H]2c3c(O)cc(CCc4ccccc4)cc3OC(C)(C)[C@@H]2CC1 gave a plasma concentration of 1.56 µM (LC-MS/MS; male BALB/c mouse, plasma; intraperitoneal, 40 mg/kg, 1 h, with: Δ9-trans-THC 10 mg/kg and cis-PET 50 mg/kg).
The plasma concentration of C/C(=N\OCCCN1CCCCC1)c1ccc(C(F)(F)F)cc1 is reported as 70 to 280 ng/mL (C57BL/6 mouse; dose not given, 0.5 to 4 h).
For CCCCCCCCCCCCCCCC(=O)NCCCC[C@H](NC(=O)[C@H](CCCCN)NC(=O)[C@H](CCCCN)NC(=O)[C@@H]1CCCN1C(=O)CNC(=O)[C@H](CC(C)C)NC(=O)[C@H](CC(C)C)NC(=O)[C@H](Cc1ccc(O)cc1)NC(=O)CNC(=O)[C@H](C)NC(=O)[C@H](CO)NC(=O)[C@H](CC(N)=O)NC(=O)[C@H](CC(C)C)NC(=O)[C@@H](NC(=O)[C@H](Cc1c[nH]c2ccccc12)NC(=O)CNC)[C@@H](C)O)C(=O)N[C@@H](CCCCN)C(N)=O, the plasma concentration was 4500 ng/mL (CF-1 mouse, plasma; intraperitoneal, dose not given, 1 h, 6 Hz 32 mA seizure model, full protection).
COC(=O)C[C@](O)(CCCC(C)(C)OC(C)=O)C(=O)O[C@@H]1C(OC)=C[C@]23CCCN2CCc2cc4c(cc2[C@H]13)OCO4 — result for plasma concentration: “not detected” (CD-1 mouse, plasma; subcutaneous, 1 mg/kg, 24 h).
C[C@H](CCC(=O)N[C@@H](CCCCNC(=O)C(F)(F)F)C(=O)O)[C@H]1CC[C@H]2[C@@H]3[C@H](O)C[C@@H]4C[C@H](O)CC[C@]4(C)[C@H]3C[C@H](O)[C@]12C has a plasma concentration of 10.3 µM and 0.48 µM and 63.6 µM (C57BL/6J mouse, plasma; oral, 50 mg/kg, 5 h).
The plasma concentration of CN(CC(=O)N(Cc1ccc(C2CCCCC2)cc1)c1ccc(C(=O)O)cc1)S(=O)(=O)c1c(F)c(F)c(F)c(F)c1F is reported as 124 ng/mL (CD-1 mouse; intravenous, 5 mg/kg, 5 min).
O=C(O)CCn1c(=O)oc2cc(Cl)c(Cl)cc21 gave a plasma concentration of 351 ± 87 µM (mouse, Kmo knockout, plasma; intravenous, 30 mg/kg, 1 h).

A few entries again:
Under “plasma concentration ratio”, CCCCCCCC(=O)NCCCC[C@H](NC(=O)[C@H](Cc1ccccc1)NC(=O)[C@@H](CCCNC(=N)N)NC(=O)[C@@H](N)Cc1ccc(O)cc1)C(N)=O is recorded as 9.3 fold (mouse, CD-1, male, plasma; intravenous, 3 mg/kg, 20 min, with: curcumin nanoemulsion 10 mg/kg; reference: with over without curcumin).
O=C1C(P(=O)(O)O)CCCN1O (stereo not drawn) — result for plasma concentration: “not detected” (mouse, plasma; subcutaneous, 400 mg/kg, 2 h, detection limit 1 µM).
